Assay results collected from several papers.
Each line is one published result; not all experiments were run side by side. Values joined by “and” are separate records of one study, mostly repeats; a detail may differ.

| SMILES | tested on | test | conditions | how to read | measurement | result |
| --- | --- | --- | --- | --- | --- | --- |
| Nc1ncnc2c1ncn2[C@@H]1O[C@H](CO)[C@@H](O)[C@H]1O | activated human T cells | measured: inosine | 10 µM | baseline: DMSO | log2 fold change | 2.1 and 2 and 1.1 |
| CC[C@@H]1C(=O)N(C)c2cnc(Nc3ccc(C(=O)NC4CCN(C)CC4)cc3OC)nc2N1C1CCCC1 | iCell Cardiomyocytes (hiPSC-derived) | xCELLigence Cardio impedance | concentration not given, 2 h | baseline: control | beat amplitude | 104% |
| CCn1cc(-c2cc(Cn3ccnc3)cc3c2CCN([C@H](c2cc(OC)ccn2)C2CC2)C3=O)c(C(F)(F)F)n1 | LUDLU-1 | cell growth, inhibitor | 120 h |  | EC50 | > 30 µM |
| O=C(O)C[C@H](O)[C@H](O)CO |  | binding, equilibrium dialysis LC-MS | 5 µM, thermostabilized A2AR-BRIL construct | baseline: no-protein control, direction not given | z-scored log2 fold change | 0.269 |
| COc1ccc2c(c1)NC(=O)CN2c1nc(C)nc2ccccc12 | A549 | flow cytometry | 0.003 µM, 24 h |  | cells in S phase | 12.4% |
| CCn1cc(-c2cc(Cn3ccoc3=N)cc3c2CCN([C@@H](C)c2cc(OC)ccn2)C3=O)c(C(F)(F)F)n1 | HuH-1 | cell growth, inhibitor | 120 h |  | EC50 | > 30 µM |
| Cn1cc(-c2ccc(F)c(C(F)(F)F)c2)nc1C1CCN(c2ncnc3[nH]ncc23)CC1 | SK-OV-3 | ATP | 0.01 µM, 4 days, 3D U-bottom low-attachment | baseline: untreated | relative cell number | 109% |
| CN(C)C/C=C/C(=O)Nc1cc2c(Nc3ccc(F)c(Cl)c3)ncnc2cc1O[C@H]1CCOC1 | iCell Cardiomyocytes (hiPSC-derived) | cellular impedance | concentration not given, 24 h | baseline: control | cell index | 95.6% |
| COc1ccc(OC)c(-c2nc3ccc(-c4nc5ccc(N6CCN(C)CC6)cc5[nH]4)cc3[nH]2)c1 | NCI/ADR-RES | cell growth, NCI-60 SRB | 10 µM, 48 h |  | growth percent | 104% |
| C[C@]12O[C@H](C[C@]1(O)CO)n1c3ccccc3c3c4c(c5c6ccccc6n2c5c31)CNC4=O | iCell Cardiomyocytes (hiPSC-derived) | xCELLigence Cardio impedance | concentration not given, 2 h | baseline: control | beat amplitude | 50.7% |
| COc1cnc2cccc(N3CCc4c(cc(Cn5ccnc5C)cc4-c4cn(C)nc4C(F)(F)F)C3=O)c2c1 | SNU-449 | cell growth, inhibitor | 120 h |  | EC50 | > 30 µM |
| Clc1ccc(Nc2nnc(Cc3ccncc3)c3ccccc23)cc1 | iCell Cardiomyocytes (hiPSC-derived) | CellTiter-Glo | concentration not given, 24 h | baseline: control | ATP level | 98.5% |
| COc1ccc2ccnc(Cc3ccc(OC)c(OC)c3)c2c1 | A549 | mitochondrial oxygen consumption, Seahorse XF96 | 10 µM |  | inhibition | 48% |
| O=C(O)C[C@H](Nc1ncnc2c1ncn2[C@@H]1O[C@H](COP(=O)(O)O)[C@@H](O)[C@H]1O)C(=O)O |  | binding, equilibrium dialysis LC-MS | 5 µM, thermostabilized A2AR-BRIL construct | baseline: no-protein control, direction not given | z-scored log2 fold change | 0.0421 |
| O=C(/C=C/C=C/C=C/C1CCCCC1)NC1=C[C@@](O)(/C=C/C=C/C=C/C(=O)NC2=C(O)CCC2=O)[C@@H]2O[C@@H]2C1=O | HCC15 | cell growth, CellTiter-Glo | 78 h |  | GI50 | 25.2 µM |
| C=CC(=O)N1CCC[C@@H](c2ccc(C(N)=O)c3[nH]ccc23)C1 | Ramos | calcium flux, FLIPR | 1 h preincubation |  | IC50 | 0.00761 µM |
| CN(C)C[C@@H]1CCn2cc(c3ccccc32)C2=C(C(=O)NC2=O)c2cn(c3ccccc23)CCO1 | iCell Cardiomyocytes (hiPSC-derived) | CellTiter-Glo | concentration not given, 24 h | baseline: control | ATP level | 88.7% |
| Cn1cc(-c2ccc(-c3cncc(Cl)c3N3CCC4(CCNC4=O)CC3)cc2)cn1 | COLO 205 | gene expression, microarray, measured: KCNN4 mRNA | concentration not given, 2 h | baseline: untreated cells | log2 fold change | 2.19 |

Excerpt of the above:
| SMILES | tested on | test | conditions | how to read | measurement | result |
| --- | --- | --- | --- | --- | --- | --- |
| CCn1cc(-c2cc(Cn3ccoc3=N)cc3c2CCN([C@@H](C)c2cc(OC)ccn2)C3=O)c(C(F)(F)F)n1 | HuH-1 | cell growth, inhibitor | 120 h |  | EC50 | > 30 µM |
| Cn1cc(-c2ccc(-c3cncc(Cl)c3N3CCC4(CCNC4=O)CC3)cc2)cn1 | COLO 205 | gene expression, microarray, measured: KCNN4 mRNA | concentration not given, 2 h | baseline: untreated cells | log2 fold change | 2.19 |
